Assay results gathered from unrelated publications.
Parts stem from different laboratories: compare values within a part only. Substitutions count along the parent as printed.

Study 1 — method: RNA Bind-n-Seq; molecule type: RNA; sample: in vitro; concentration: 365 nM; baseline: no-protein control; direction: higher = stronger binding; endpoint: RBNS enrichment (R)
Target: RNA binding protein fox-1 homolog 2, RRM domain, GST-SBP tag (RBFOX2, Homo sapiens, UniProt O43251-10, residues 100-194)
Setting: natural RNA segment, single round, ends assumed
Target sequence (chain): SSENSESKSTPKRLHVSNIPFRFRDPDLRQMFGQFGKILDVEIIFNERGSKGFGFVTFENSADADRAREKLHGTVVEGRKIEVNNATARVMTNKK
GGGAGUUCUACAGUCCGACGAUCUGUGACCAGCUCGACUGGCGGCCACUGGCUGUUCCCAUGAGUUCAGCUGUGACGUUAGCUUCAGUGGCUCCGCCGCAUCCUCACACUGACGGGGGCUCCAUACGGACCUGUGGAAUUCUCGGGUGCCAA: 0.323
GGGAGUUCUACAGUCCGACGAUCUUAAGUCACCUUGUGCGAGAACCUCAACCGCACCUAUCUUGGGAACCGGGUAUACCCUUUUCUUUAGCACUGCUAUCCUUUUUGUCUUCAGCACAAAUAAGAUGUUCAAGUGGAAUUCUCGGGUGCCAA: 0.703
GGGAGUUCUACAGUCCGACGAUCGAAAGAAAAGUGGAUUUGAACUCAGUGUCACAGACUCUUCUGAGUGUUUUAGGGUCACAGCUAGUGUAAGAGGCAUGAAGAAUAGACAUGCAAAAGGGAACGGGUGCACCUGGAAUUCUCGGGUGCCAA: 1.18
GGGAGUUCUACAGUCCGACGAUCUUGGUGUGGAGGGUACUGCCUUGGCCUGUGGCGUUUGUCCUGUCUCAUCUCUCCCAGCAUCCAUAGGAACACACUAACAUUGGGAUGGCAGGCACAUCCUGGUACUGGCAUGGAAUUCUCGGGUGCCAA: 2.28
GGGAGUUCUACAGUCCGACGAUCUUGAUACUUUAAAAGGACUUUAUAUUUGUAACAUUGAUGUUAACCAGUUUAUUAGUUUAAAUCAGUACUUUGCAUAUAAUAAGCAUUCAACAAAAAUUUAUUGACUGAAAUGGAAUUCUCGGGUGCCAA: 0.437
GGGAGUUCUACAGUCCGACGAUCUGAAGAUGAUGACGAGGAAUCGGAAGCCCAGGGGCCCAAUGAAGUUGCUCGCAGCUGGGGUGUGGGGCCAAGUGGCAGCCAGGGCCAAGACAAGCAGCAUCUGUCCCCCCUGGAAUUCUCGGGUGCCAA: 0.939
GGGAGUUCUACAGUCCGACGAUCCAUGAUUGAUGGAUGUUAAAGUCUAGCCUGAUGAGAGGGGAAGUGGUGGGGGAGACAUAGCCCCACCAUGAGGACAUACAACUGGGAAAUACUGAAACUUGCUGCCUAUUUGGAAUUCUCGGGUGCCAA: 0.76
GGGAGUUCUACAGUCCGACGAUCACGGUGCACCAGGUUGACUUGAAUAAAUUUGGCAACCAGGUUUGCAAGCGUGCAGAAACUAACUCCUCUCUCACAAAGGCUUAUAAAAUUGGUGUGUCCUAUGGAAAUGGUGGAAUUCUCGGGUGCCAA: 1.07

Study 2 — method: protein-binding microarray; molecule type: double-stranded DNA, one strand shown; sample: in vitro; concentration: 250 nM; setting: 60-bp whole probe; added: salmon DNA 0.4 mg/ml; baseline: random background probes; direction: higher = stronger binding; endpoint: log fluorescence; shared flanks, not repeated: GCCTAGCAC … GTCTTGATTCGCTTGACGCTGCTG
Target: Interferon regulatory factor 7, full length, phosphomimetic (IRF7, Homo sapiens, UniProt Q92985, residues 1-503, S101K/S471D/S472D/S475D/S476D/S477D/S483D/S484D/S487D)
Sequence of UniProt Q92985 (whole entry, unmodified, looked up): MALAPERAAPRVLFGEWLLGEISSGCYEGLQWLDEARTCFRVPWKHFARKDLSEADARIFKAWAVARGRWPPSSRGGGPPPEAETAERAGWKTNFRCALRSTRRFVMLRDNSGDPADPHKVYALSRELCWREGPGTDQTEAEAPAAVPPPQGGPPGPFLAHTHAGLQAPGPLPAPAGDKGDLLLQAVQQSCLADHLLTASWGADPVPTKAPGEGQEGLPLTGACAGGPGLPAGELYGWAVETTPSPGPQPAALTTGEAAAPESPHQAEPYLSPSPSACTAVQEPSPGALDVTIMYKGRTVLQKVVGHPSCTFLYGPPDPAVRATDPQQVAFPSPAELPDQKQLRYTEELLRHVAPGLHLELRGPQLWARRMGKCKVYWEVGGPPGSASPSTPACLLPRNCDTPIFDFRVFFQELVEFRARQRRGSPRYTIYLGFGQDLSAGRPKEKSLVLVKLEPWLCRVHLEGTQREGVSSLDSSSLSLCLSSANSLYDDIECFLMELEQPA
TTAGGTTTCGGGTTTCGGTTCGTGCTA: 13.9 z-score
TTTTATGAAGGCCGGGGAGGGTGCTAG: 0.446 z-score
GTAGGACTGGACACTGGGTTAGTGCTA: -0.905 z-score
GACGGTCTCGGGCTGGGGACGTGCTAG: -0.111 z-score
TTAGGTATCGGTCTCGGGTAGTGCTAG: 1.07 z-score
TTAGAACTGACTTTCGATTAGTGCTAG: 1.38 z-score
GACGAACTGCTTATCCTGACGTGCTAG: -0.339 z-score
GTGTTTTCACTTTTCCTACAGTGCTAG: 3.86 z-score
TTAGGTTTCCTTATCCATTAGTGCTAG: 2.89 z-score
GACGGCCTGGACTTTCGGGACGTGCTA: -1.04 z-score
TTAGGTCTCGGTATCCGTTAGTGCTAG: 2.9 z-score
GACGGACTGGATCTCGGGACGTGCTAG: -0.532 z-score
TTAGGACTGGACAATGGGTTAGTGCTA: -0.434 z-score

Study 3 — method: DHFR PCA, deep sequencing; sample: yeast; added: (+)-ABA 200 µM; baseline: wild-type fitted maximum; direction: higher = stronger binding; endpoint: relative binding score
Target: ABI1, truncated, D143A, DHFR fusion (Arabidopsis thaliana)
Setting: methotrexate growth selection, single substitutions
Starting sequence: PYL1, truncated, DHFR fusion (Arabidopsis thaliana); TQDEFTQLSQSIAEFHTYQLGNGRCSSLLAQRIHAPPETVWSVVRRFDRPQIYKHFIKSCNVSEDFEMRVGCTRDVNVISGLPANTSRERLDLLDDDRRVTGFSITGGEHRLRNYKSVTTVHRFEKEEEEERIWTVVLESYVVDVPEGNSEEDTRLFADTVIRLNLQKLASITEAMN
N85E: 104%
L156Q: 94.9%
R88Q: 103%
V62G: 51.2%
Q2D: 103%
A170D: 39.6%
T73D: 78%
G148M: 77%
T160A: 76.4%
N177M: 116%
F124Y: 109%

Study 4 — method: RNA Bind-n-Seq; molecule type: RNA; sample: in vitro; concentration: 1 µM; setting: whole 134-nt RNA, ends assumed; added: 150 mM KCl; baseline: input library; direction: higher = stronger binding; endpoint: log2 enrichment
Target: Ras GTPase-activating protein-binding protein 1, C-terminal RGG region (G3BP1, Homo sapiens, UniProt Q13283)
Sequence of UniProt Q13283 (whole entry, looked up): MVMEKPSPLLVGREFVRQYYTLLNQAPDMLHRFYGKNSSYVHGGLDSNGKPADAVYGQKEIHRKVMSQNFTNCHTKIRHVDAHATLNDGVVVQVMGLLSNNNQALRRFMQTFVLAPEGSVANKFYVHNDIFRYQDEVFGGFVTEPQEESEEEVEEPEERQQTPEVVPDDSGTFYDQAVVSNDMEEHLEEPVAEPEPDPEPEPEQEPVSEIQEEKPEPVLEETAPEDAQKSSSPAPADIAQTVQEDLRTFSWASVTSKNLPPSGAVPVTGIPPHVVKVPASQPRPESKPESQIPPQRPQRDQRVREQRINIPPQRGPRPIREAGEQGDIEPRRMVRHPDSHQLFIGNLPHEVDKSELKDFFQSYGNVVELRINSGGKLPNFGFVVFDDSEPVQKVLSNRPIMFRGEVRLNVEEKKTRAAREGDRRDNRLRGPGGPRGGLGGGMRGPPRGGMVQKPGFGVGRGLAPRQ
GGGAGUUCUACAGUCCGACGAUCUGGGAGGUGGAUUUUGUUUAUUUUUUUAGCUCAUUUCCAGGGGUGGGAAUUUUUUUUUAAUAUGUGUCAUGAAUAAAGUUGUUUUUGUAAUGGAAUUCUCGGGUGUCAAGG: 3.25
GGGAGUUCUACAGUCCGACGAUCUGGCCCUGGUGGCAUGCGGGGAGGAAGAGGUGGCCUCAUGGAUCGUGCUGGUCCCGGUGGAAUGUUCAGAGGUGGCCGUGGUGGAGACAGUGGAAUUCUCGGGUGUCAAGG: 0.96
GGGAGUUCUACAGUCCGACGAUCCCUGUGCUACACAUCGUAUGUACCGAAUCGGUUUUUUUGGGGUUUUUUUGGUUUUUUUGGAAAGUAUUAUGUUACGCCGUUCGGAUCUGCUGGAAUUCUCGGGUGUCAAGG: -1.17
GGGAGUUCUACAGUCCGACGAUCUGGGAGGUGGAUUUUGUUUAUUUUUUUAGCUCAUUUCCAGGGGUGGGAAUUUUUUUUUAAUAUGUGUCAUGAAUAAAGUUGUUUUUGAGAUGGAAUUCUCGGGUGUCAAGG: 2.98
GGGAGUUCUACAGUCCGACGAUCACCAUGCAGGUGGGCAUCUUUGGGAAGUGGGGCAAGGGGGGGAUAGGGAGUGGGGUAACACUUUGGGAACAGGUGGUCCCAGGUCGUUUCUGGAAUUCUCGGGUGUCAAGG: 2.1
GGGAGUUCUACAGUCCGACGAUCACCUUGCAGGUGGGCAUCUUUGGGAAGUGGGGCAAGGGGGGGAUAGGGAGGGGGGUAACACUUUGGGAACAGGUGGUCCCAGGUCGUUUCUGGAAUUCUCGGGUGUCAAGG: -0.948
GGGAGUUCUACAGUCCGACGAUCUGCCGUGCCGGGUGGACGGUCUGCUCGCCUGUCUGCGUGACGAAACUGAGGCACAAAGACGCGCUAUGCCAGCGGCGGGUAUAGCAAGGGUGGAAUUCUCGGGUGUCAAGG: -1.3
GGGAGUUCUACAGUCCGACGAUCUCAAGUCCUGUGCUACACAUCGUAUGUACCGAAUCGGGUGGGAAAAAGGGAGGGAAAGUAUUAUGUUACGCCGUUCGGAUCUGCACUUCCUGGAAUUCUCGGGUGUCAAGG: 1.72
